# Measurements pooled from the literature.
# Each numbered part is a random draw from the data of one study; scales do not carry over between parts.

# Sample 1
# Target: Interferon regulatory factor 5, full length, phosphomimetic (IRF5, Homo sapiens, UniProt Q13568-2, residues 1-514, K96S/S451D/S453D/S456D/S462D)
# Technique: protein-binding microarray
# Molecule type: double-stranded DNA, one strand shown
# Matrix: in vitro
# Tested at: 250 nM
# Notes: 60-bp whole probe
# Added: salmon DNA 0.4 mg/ml
# Baseline: random background probes
# Direction: higher = stronger binding
# Constant ends, left off below: GCCTAGCAC … GTCTTGATTCGCTTGACGCTGCTG
Sequence,log fluorescence [z-score]
GACAGTCTCCTTATCCTGACGTGCTAG,-0.0213
TTAGAATTGAGACTGGATTAGTGCTAG,-0.163
GACGGTTTAGGGTATCGGGACGTGCTA,0.376
TTAGAACTGGGGACTGGTTTAGTGCTA,-0.318
TTAGGTCACCTTTTCCTTTAGTGCTAG,0.193
GGAGGTCTGGATGTGCCGCGGTGCTAG,-0.755
TGGGCTACCTCTCTTAGAATGTGCTAG,-0.616
GACGGTCTTGGACTGGGGACGTGCTAG,-0.385
GACGATTTTAGTTCCGAGACGTGCTAG,0.506
TTAGGTTTCGGCCTCGGTTAGTGCTAG,7.4
TCCACTTTCTTAATGCTTCTGTGCTAG,2.38

# Sample 2
# Target: RNA binding protein fox-1 homolog 2, RRM domain, GST-SBP tag (RBFOX2, Homo sapiens, UniProt O43251-10, residues 100-194)
# Technique: RNA Bind-n-Seq
# Molecule type: RNA
# Matrix: in vitro
# Tested at: 365 nM
# Notes: natural RNA segment, single round, ends assumed
# Baseline: no-protein control
# Direction: higher = stronger binding
# Constant ends, left off below: GGGAGUUCUACAGUCCGACGAUC … UGGAAUUCUCGGGUGCCAA
# Target sequence (chain): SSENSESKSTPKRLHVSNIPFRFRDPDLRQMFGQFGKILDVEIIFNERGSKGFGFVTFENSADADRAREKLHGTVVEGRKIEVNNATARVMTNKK
Sequence,RBNS enrichment (R)
GGGCCACACUGGCCUAGCCUGAACCUAGAUCCCUAACCCUGGGCUGGGUGAGGCUCACCUGCCCAGGACCACAGUGGGACAGCCUGGGCAGGUGGGUGGCACAGCAUAAG,0.4
AAGUCAAGCAGAGACUCAAACUGAGGCUUCCUCCUCCACGAAGUCAGGAGCAGACAGAGCAAGAAUUGGCUCCAGGGCUCAAGCCUGCCCUCUGGGCAGCCUGGCGUGGG,0.206
CCUGUAGCACUAGAAAUGCUUUCCUAUUUAAAAUAAACAUUAAAUUUUAAAAUAGAGCUUUGUAUACUAUGUAAGCAGUUUUAUAUCAGCUUUGUAAAAGCUUUGGUGUU,0.661
CCGUGUAACCACCUGGACUAAGUUGAGAAGGAAACUGCCAAAUGCUUUGGGUUUUUAGGGUUUUAAUAGGUAGACUCUGUUCUAUUAUUAGGUGUUAAGAGUUUCCAAAC,0.645
CCAGGACGUGGCCUCUUCCGAUCCUUUUCUCUCAGACACUGGAGGUCUCUUCUGCCAUUGUGCUGGUCCCAUCCCAAGAAUUGUAGGACAGAGACCACACUGGGUCGGCG,0.665
UGAUUUCUUUUUUUUUCCUGUUGGACUAUGUUUGUGAACAUAAUUGUCAUAAGUUAUGUUUCAGAUUUUUGAAUUUAUUUAUAUGUGUUAUAAUGAAUGCUUCUAUUUAA,0.725
AGGACUAAGCAAGGGAAGGGAGGACCGAUUGCCAUCGGCCUUCAUGCUCUGGUUAGGGUGAGGUUGGGGCCAAGAGGACAGGGCCUGGCAGAUCUUCAGUCAUUGGGAAG,0.412
AGAUGUUUAUAUCUUUGGAAGUUUUACAUAAAUCAAAGGAAGAAAGCACAUUUAAAAUGAGAAACUAAGACCAAUUUCUGUUUUUAAGAGGAAAAAGAAUGAUUGAUGUA,1.06
UCUCCUUCUUGCAGGACACAAAUGAUAUCGCUUAGUCAUAAGUGUGGUAGACUGGAUCCUGACCAGAAGGAGGUCUGAUAUAAUAUCCAUCCAGACAAGAAAUCAACAUG,0.374
UGCAUUUUCUAAACAGAGAUGAGGUGGUAUCUUCACGUAGAACAUUGGUAUUCGCUUGAGAAAAAAAGAAUAGUUGAACCUAUUUCUCUUUCUUUACAAGAUGGGUCCAG,0.294
GUUUUUUAAAGAGAAACAGAACCAGACUCCUUUCCCGGCCCUCCAAACAUGUAUUCUGUGCGAUAACUUGUGCCUGCGACAAGUGUUAAUCUUGGGAUCGUAUUUUUAUA,1.19
GGGUUUGGCCCCUAGCUCCCACCAUGCUCCAUAGCAAAUGGCUAAAUUAAUAAAGAAGCAAAACUGUCUCUGCUAAGGGUUGCUGGAGGAGAUGGCGCAGAGACCCUGAC,0.625

# Sample 3
# Target: PABPC1L2, full length, GST fusion (mouse, UniProt A0ABA7IW68)
# Technique: RNAcompete
# Molecule type: RNA
# Matrix: in vitro
# Tested at: 20 nM
# Notes: 7-mer, probes averaged, single round
# Baseline: mean of 7-mers
# Direction: higher = stronger binding
# Residues (chain): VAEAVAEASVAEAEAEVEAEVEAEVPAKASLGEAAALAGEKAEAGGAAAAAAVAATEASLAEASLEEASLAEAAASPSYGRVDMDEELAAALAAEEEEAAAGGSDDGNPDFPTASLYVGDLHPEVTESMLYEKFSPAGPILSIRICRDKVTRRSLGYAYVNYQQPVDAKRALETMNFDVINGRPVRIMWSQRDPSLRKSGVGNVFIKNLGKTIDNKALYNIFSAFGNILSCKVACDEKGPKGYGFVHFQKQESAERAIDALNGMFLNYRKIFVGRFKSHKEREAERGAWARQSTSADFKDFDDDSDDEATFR
Sequence,7-mer Z-score
AGUGACU,-0.237
AGAUUGC,-0.246
UUGUUGG,-0.409
UGGAGGU,0.037
UCUGAGC,-0.273
ACACGCU,-0.0971
UUCUGCG,-0.249
GCUUGUA,-0.186
CUAUCCA,-0.371
ACACCAG,-0.112
UGGCCGG,-0.151
GUCUCCG,-0.418
CACUCAC,-0.0627
GGUUGGC,-0.0319
UUCGUAU,-0.374
AGGUACG,-0.00289

# Sample 4
# Target: Max dimerization protein 1, bHLH-zipper, MAX partner unstated (MXD1, Homo sapiens, UniProt Q05195, residues 56-136)
# Technique: protein-binding microarray
# Molecule type: double-stranded DNA, one strand shown
# Matrix: in vitro
# Tested at: not given
# Notes: k-mer, scored over probes, only values ≥0.25
# Direction: higher = stronger binding
# Target sequence (chain): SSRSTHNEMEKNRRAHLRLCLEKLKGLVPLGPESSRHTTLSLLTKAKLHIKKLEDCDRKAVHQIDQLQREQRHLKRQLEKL
Sequence,E-score
CAGGGGGA,0.272
GCATGAGA,0.279
ACGCGAGG,0.281
TCGCCCCA,0.26
AACACACG,0.317
ACGCGCCA,0.351
AAGCCACG,0.292
CATGCCCC,0.39
CGCATGCC,0.419
AACGTGGC,0.388
CATGGTGG,0.294

# Sample 5
# Target: Histone acetyltransferase KAT6A, winged helix 1, GST fusion (KAT6A, Homo sapiens, UniProt Q92794, residues 1-85)
# Technique: protein binding microarray
# Molecule type: double-stranded DNA, one strand shown
# Matrix: in vitro
# Tested at: not given
# Notes: 8-mer, flanks averaged, mean of 2 arrays, mostly near background
# Baseline: not given
# Direction: higher = stronger binding
# Target sequence (chain): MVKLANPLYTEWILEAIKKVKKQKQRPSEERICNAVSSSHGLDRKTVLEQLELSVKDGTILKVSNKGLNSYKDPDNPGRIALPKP
Sequence,E-score
ACGGCGTG,0.416
AAACTGGG,-0.34
CCGTAGAC,0.235
CCGGCAAC,0.285
GTCTGTCA,-0.11
AAGTACTT,0.0361
AGGAGCAA,-0.216
AAACGAGG,-0.169
CTACCTGA,-0.173
GATTGCCA,-0.13
CCACATCC,-0.19
GAAACTGA,0.102
TAGAGACA,-0.232
CGAGCACG,0.102
CAAGAGAG,-0.213
GCACGTGC,0.147

# Sample 6
# Target: Fragile X messenger ribonucleoprotein 1, C-terminal low-complexity region (Fmr1, Mus musculus, UniProt P35922)
# Technique: RNA Bind-n-Seq
# Molecule type: RNA
# Matrix: in vitro
# Tested at: 200 nM
# Notes: whole 134-nt RNA, ends assumed
# Added: 150 mM KCl
# Baseline: input library
# Direction: higher = stronger binding
# Constant ends, left off below: GGGAGUUCUACAGUCCGACGAUC … UGGAAUUCUCGGGUGUCAAGG
Sequence,log2 enrichment
GCGGGAAGUAAAAACAAAUGGAAAUGCUUCGGAUAGUGGCAGGGGUGGGGGUUGCUAAGGAAAGGGUGGGAUGGGAGUGGGUAAAGAGUU,0.621
UAACUUUAGAGGUGGAUCUGAUGGAUAUGGCAGUGGACGUGGAUUUGGGGAUGGCUAUAAUGGGUAUGGAGGAGGACCUGGAGGUGGCAA,0.288
UCCCUGUCCAAGCUGAGCGCCCUCAACGAGAGCCUUGCUCAGGACAAGUUGGAUCUGAACUGCCUUGUCACCCAGGUACACUGUGCACCU,0.652
UCAAGUCCUGUGCUACACAUCGUAUGUACCGAAUCGGAAGGGGAAGGGGAAGGGGAAAGUAUUAUGUUACGCCGUUCGGAUCUGCACUUC,0.736
UCCUGUGCUACACAUCGUAUGUACCGAAUCGGGAAAAAGGGAAAAAAAGGGUUUUUGGGAAAGUAUUAUGUUACGCCGUUCGGAUCUGCA,-0.164
ACAAAGCAGGUGGGCAUCUUUGGGAAGUGGGGCAAGGGGGGGAUAGGGAGGGGGGUAACACUUUGGGAACAGGUGGUCCCAGGUCGUUUC,0.915
ACCAUGCACGUGGGCAUCUUUGGGAAGUGGGGCAAGGGGGGGAUAGGGAGGGGGGUAACACUUUGGGAACAGGUGGUCCCAGGUCGUUUC,0.787
UCAAGUCCUGUGCUACACAUCGUAUGUACCGAAUCGGGUUUGGGAGGGAAAGGGAAAGUAUUAUGUUACGCCGUUCGGAUCUGCACUUCC,0.948
AAGUCCUGUGCUACACAUCGUAUGUACCGAAUCGGGUGGGAAAGGGAAAAAAAGGGAAAGUAUUAUGUUACGCCGUUCGGAUCUGCACUU,0.225
CCUCAAGUCCUGUGCUACACAUCGUAUGUACCGAAUCGGUUUGGUUUGGAGGAAAGUAUUAUGUUACGCCGUUCGGAUCUGCACUUCCAG,0.0796

# Repeated from above (sample 4):
Sequence,E-score
ACGCGAGG,0.281
TCGCCCCA,0.26
AACACACG,0.317
ACGCGCCA,0.351
AAGCCACG,0.292
CATGCCCC,0.39
CGCATGCC,0.419
AACGTGGC,0.388
CATGGTGG,0.294
